Published values of several laboratories.
Lines come from different studies, so protocols differ. Several values in a cell are separate wells, animals, samples, runs or records. ± marks the error that the study gave.
Fibroin-modulator-binding protein-1: Fibroin-modulator-binding protein-1 99-193 (Bombyx mori, UniProt Q5FBS0)
SPT15/TOA1/TOA2/SUA7 1-240; 1-286; 1-122; 1-345: SPT15/TOA1/TOA2/SUA7 1-240; 1-286; 1-122; 1-345 (Saccharomyces cerevisiae)
Sequence of UniProt Q64663 (whole entry, unmodified, looked up): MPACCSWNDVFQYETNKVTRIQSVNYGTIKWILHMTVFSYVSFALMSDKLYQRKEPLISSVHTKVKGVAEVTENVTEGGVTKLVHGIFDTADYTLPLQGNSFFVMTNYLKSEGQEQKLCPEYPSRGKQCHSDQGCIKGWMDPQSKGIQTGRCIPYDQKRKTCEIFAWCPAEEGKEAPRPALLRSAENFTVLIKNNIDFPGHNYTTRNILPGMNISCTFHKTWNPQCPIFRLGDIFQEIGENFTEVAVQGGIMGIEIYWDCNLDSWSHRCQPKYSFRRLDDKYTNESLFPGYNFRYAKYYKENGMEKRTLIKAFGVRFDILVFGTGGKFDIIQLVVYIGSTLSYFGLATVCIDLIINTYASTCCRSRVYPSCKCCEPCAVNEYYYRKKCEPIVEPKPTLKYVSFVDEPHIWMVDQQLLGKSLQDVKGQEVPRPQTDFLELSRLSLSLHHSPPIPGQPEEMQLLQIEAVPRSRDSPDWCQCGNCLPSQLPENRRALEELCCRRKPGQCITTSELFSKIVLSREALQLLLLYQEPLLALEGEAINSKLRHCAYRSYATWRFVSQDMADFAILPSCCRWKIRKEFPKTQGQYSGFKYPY
Sequence of UniProt P48067 (whole entry, looked up): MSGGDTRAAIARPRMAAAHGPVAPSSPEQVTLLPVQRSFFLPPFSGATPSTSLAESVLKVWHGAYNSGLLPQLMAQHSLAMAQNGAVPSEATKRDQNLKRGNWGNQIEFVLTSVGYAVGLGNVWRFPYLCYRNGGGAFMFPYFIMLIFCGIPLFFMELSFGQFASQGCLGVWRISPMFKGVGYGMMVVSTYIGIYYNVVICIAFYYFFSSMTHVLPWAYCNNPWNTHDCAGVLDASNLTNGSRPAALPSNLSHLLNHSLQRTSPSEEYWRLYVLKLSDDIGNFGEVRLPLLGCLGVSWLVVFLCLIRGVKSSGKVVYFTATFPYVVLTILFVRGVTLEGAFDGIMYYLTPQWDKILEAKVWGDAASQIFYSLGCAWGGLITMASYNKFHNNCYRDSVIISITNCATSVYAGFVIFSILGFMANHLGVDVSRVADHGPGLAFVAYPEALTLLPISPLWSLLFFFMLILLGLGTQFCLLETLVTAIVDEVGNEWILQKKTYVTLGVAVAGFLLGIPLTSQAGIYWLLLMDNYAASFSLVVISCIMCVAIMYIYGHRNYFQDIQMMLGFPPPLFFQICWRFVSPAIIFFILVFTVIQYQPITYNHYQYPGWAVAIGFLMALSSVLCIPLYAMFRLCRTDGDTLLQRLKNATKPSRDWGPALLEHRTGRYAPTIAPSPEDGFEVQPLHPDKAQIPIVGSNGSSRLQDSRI
Sequence of UniProt Q13YL3 (whole entry, looked up): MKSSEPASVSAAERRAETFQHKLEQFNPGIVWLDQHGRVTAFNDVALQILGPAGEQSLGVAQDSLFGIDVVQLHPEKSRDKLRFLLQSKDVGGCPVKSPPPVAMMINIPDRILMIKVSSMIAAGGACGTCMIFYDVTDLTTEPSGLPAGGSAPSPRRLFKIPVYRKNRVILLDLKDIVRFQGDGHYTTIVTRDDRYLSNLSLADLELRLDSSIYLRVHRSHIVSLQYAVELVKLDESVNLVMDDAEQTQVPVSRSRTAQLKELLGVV

Substance | target or system | assay | test system | setting | scale | quantity | result
11-deoxycorticosterone | CYP11B2 (human) | substrate binding, stopped-flow kinetic modelling | – | 4-state branched induced-fit model, added: no adrenodoxin | – | rate constant k-1 | 514 min⁻¹
GGGAGAACUUCGACCAGAAGAGCAAGUACGCGAAAAUCUUCCCCGCCUCUUGUUGGCAUCUAUGUGCGCAUACAUGGAUCCUC (ssRNA; 2'-fluoro pyrimidines) | integrin alphaV/beta3 31-992/27-718 (Homo sapiens) | SPR | RNA | added: MnCl2 1 mM | higher = more binding | relative binding | 73.9 RU
GTCGGTCGGTCG (dsDNA) | Fibroin-modulator-binding protein-1 | ITC | double-stranded DNA, one strand shown | – | – | Kd | 7390 nM
GGGAGAACUUCGACCAGAAGCACUACGCAAACUCCUUCUGCCUGUGCUUGAAAAACGCAUUAUGUGCGCAUACAUGGAUCCUC (ssRNA; 2'-fluoro pyrimidines) | integrin alphaV/beta3 31-992/27-718 (Homo sapiens) | SPR | RNA | added: MnCl2 1 mM | higher = more binding | relative binding | 24.1 RU
colistin | Pseudomonas aeruginosa | broth microdilution | clinical isolate RKI-No_615/15 | – | – | MIC | 1 µg/mL
GGGAGGGAGGGA (dsDNA) | Fibroin-modulator-binding protein-1 | ITC | double-stranded DNA, one strand shown | – | – | Kd | 7650 nM
PKRSFIESNV | human SCRIB PDZ3-4 tandem (MBP fusion) | surface plasmon resonance | peptide | concentration not given | higher = stronger binding | normalised SPR binding response | 214 normalised RU
CATGCATGCATG (dsDNA) | Fibroin-modulator-binding protein-1 | ITC | double-stranded DNA, one strand shown | – | – | Kd | 3970 ± 375 nM
GTTCCTGAAGGGGGGGCGGGGTGGGTATAAAAGGGTCAAGTCAATCGGTCC (dsDNA; 5'-amino-C6 primer) | SPT15/TOA1/TOA2/SUA7 1-240; 1-286; 1-122; 1-345 | array | double-stranded DNA, one strand shown | TBP:TFIIA:TFIIB ternary complex | – | Kd | 3.29 ± 1.51 nM
GGGAGAACUUCGACCAGAAGAGCGACUAAACGCAGAGAAAUCGUCUCCCUGAGGUUCCGAUAUGUGCGCAUACAUGGAUCCUC (ssRNA; 2'-fluoro pyrimidines) | integrin alphaV/beta3 31-992/27-718 (Homo sapiens) | SPR | RNA | added: MnCl2 1 mM | higher = more binding | relative binding | 5 RU
TGCATGCATGCA (dsDNA) | Fibroin-modulator-binding protein-1 | ITC | double-stranded DNA, one strand shown | – | – | Kd | 1480 ± 100 nM
ATTCCAGTATGGCGTATAAATAAAGGCGAGGAGAATCAAGTCAATCGGTCC (dsDNA; 5'-amino-C6 primer) | SPT15/TOA1/TOA2/SUA7 1-240; 1-286; 1-122; 1-345 | array | double-stranded DNA, one strand shown | TBP:TFIIA:TFIIB ternary complex | – | Kd | 1.3 ± 0.21 nM
FNA / CGLSGLGVA-NH2 ([18F]FNA-labelled, C-amide) | – | ex vivo gamma counting | peptide, healthy mouse, muscle | 60 min post injection | – | tissue uptake | 0.19 %ID/g
CGGGTTTCATGTACGTTTTCCGCTAGTTGGCGCGCGTGAACCCGCCGTTCGGGAAATTGCGT (dsDNA; blunt) | rcoM1 full length assumed (Paraburkholderia xenovorans, UniProt Q13YL3) | fluorescence anisotropy | double-stranded DNA, one strand shown | Fe(II)-CO, Hill coefficient | – | K1/2 | 250 ± 10 nM
GGGAGAACUUCGACCAGAAGCUACCAGGUCUUGCACAUUACGCGACAACCAAGCCCCGCCUAUGUGCGCAUACAUGGAUCCUC (ssRNA; 2'-fluoro pyrimidines) | integrin alphaV/beta3 31-992/27-718 (Homo sapiens) | SPR | RNA | added: MnCl2 1 mM | higher = more binding | relative binding | 21.9 RU
DNA 1 TGGGTGGGTAGGGTGGGTAGGGGAGGAT / DNA 2 ATCCTCCCCTA (DNA; intramolecular parallel G4, 5' overhang, 11-bp duplex) | REV1 330-833 R434Q (Homo sapiens, UniProt Q9UBZ9) | FP | folded DNA | KCl 100 mM | – | Kd | 4 ± 1 nM
Peginesatide | UT7/EPO | tyrosine phosphorylation, LC-MS/MS phosphoproteomics, trypsin, refers to: JAK2 tyrosine 1007 | – | 10 nM, 15 min, added: 10 U/mL EPO | reference: vehicle | phosphorylation level | 14.4 fold
ACGAACGAACGA (dsDNA) | Fibroin-modulator-binding protein-1 | ITC | double-stranded DNA, one strand shown | – | – | Kd | 11200 nM
BzATP | P2X purinoceptor 7 (P2rx7, Rattus norvegicus, UniProt Q64663, I214A/R125A) | ion current, agonist, two-electrode voltage clamp | Xenopus laevis oocytes | 3.7 µM | reference: highest concentration response | normalized current | 0.06 and 0.08 and 0.05
methyl-β-cyclodextrin | SLC6A9 (Homo sapiens, UniProt P48067) | transport activity, [3H]glycine uptake | – | 3.5 mg/mL, 1 min, added: glycine 150 µM | higher = more transport | glycine uptake rate | 20.8 a.u. and 39 a.u. and 38.2 a.u. and 20.6 a.u.
KPGKGSETVV | human MAGI1-2/6 PDZ construct (MBP fusion) | surface plasmon resonance | peptide | concentration not given | higher = stronger binding | normalised SPR binding response | 92 normalised RU
GGGAGAACUUCGACCAGAAGUAAGACGCACCAUAACUACGCAAGAGUUCUCUCUGCCUGAUAUGUGCGCAUACAUGGAUCCUC (ssRNA; 2'-fluoro pyrimidines) | integrin alphaV/beta3 31-992/27-718 (Homo sapiens) | SPR | RNA | added: MnCl2 1 mM | higher = more binding | relative binding | 18.2 RU
TCCTGAAGGGGCGACCTAGCTTGGTCCTATCGTCGTCAAGTCAATCGGTCC (dsDNA; 5'-amino-C6 primer) | SPT15/TOA1/TOA2/SUA7 1-240; 1-286; 1-122; 1-345 | array | double-stranded DNA, one strand shown | TBP:TFIIA:TFIIB ternary complex | – | Kd | 3.61 ± 1.04 nM
DNA 1 CACTGGCCGTCTTACGGTCGCTCTGCTCGACG / DNA 2 CGACCGTAAGACGGCCAGTG (dsDNA; 20 bp, 3' 12 nt overhang) | RECQL 63-592 M429A (Bos taurus, UniProt A0JN36) | fluorescence anisotropy | double-stranded DNA | added: Mg2+ 3 mM | – | Kd | 19.3 ± 4.1 nM

A few entries again:
Substance | target or system | assay | test system | setting | scale | quantity | result
GGGAGGGAGGGA (dsDNA) | Fibroin-modulator-binding protein-1 | ITC | double-stranded DNA, one strand shown | – | – | Kd | 7650 nM
PKRSFIESNV | human SCRIB PDZ3-4 tandem (MBP fusion) | surface plasmon resonance | peptide | concentration not given | higher = stronger binding | normalised SPR binding response | 214 normalised RU
CATGCATGCATG (dsDNA) | Fibroin-modulator-binding protein-1 | ITC | double-stranded DNA, one strand shown | – | – | Kd | 3970 ± 375 nM
